Experimental data of several laboratories.
Compare with care: the assays were run in different laboratories. “And” joins repeats or separate records; there may be more than shown. Numbers after ± are the reported error.
CASP10: Caspase-10 (CASP10, Homo sapiens, UniProt Q92851)
CASP8: Caspase-8 (CASP8, Homo sapiens, UniProt Q14790)
Sequence of UniProt Q9UPU5 (whole entry, looked up): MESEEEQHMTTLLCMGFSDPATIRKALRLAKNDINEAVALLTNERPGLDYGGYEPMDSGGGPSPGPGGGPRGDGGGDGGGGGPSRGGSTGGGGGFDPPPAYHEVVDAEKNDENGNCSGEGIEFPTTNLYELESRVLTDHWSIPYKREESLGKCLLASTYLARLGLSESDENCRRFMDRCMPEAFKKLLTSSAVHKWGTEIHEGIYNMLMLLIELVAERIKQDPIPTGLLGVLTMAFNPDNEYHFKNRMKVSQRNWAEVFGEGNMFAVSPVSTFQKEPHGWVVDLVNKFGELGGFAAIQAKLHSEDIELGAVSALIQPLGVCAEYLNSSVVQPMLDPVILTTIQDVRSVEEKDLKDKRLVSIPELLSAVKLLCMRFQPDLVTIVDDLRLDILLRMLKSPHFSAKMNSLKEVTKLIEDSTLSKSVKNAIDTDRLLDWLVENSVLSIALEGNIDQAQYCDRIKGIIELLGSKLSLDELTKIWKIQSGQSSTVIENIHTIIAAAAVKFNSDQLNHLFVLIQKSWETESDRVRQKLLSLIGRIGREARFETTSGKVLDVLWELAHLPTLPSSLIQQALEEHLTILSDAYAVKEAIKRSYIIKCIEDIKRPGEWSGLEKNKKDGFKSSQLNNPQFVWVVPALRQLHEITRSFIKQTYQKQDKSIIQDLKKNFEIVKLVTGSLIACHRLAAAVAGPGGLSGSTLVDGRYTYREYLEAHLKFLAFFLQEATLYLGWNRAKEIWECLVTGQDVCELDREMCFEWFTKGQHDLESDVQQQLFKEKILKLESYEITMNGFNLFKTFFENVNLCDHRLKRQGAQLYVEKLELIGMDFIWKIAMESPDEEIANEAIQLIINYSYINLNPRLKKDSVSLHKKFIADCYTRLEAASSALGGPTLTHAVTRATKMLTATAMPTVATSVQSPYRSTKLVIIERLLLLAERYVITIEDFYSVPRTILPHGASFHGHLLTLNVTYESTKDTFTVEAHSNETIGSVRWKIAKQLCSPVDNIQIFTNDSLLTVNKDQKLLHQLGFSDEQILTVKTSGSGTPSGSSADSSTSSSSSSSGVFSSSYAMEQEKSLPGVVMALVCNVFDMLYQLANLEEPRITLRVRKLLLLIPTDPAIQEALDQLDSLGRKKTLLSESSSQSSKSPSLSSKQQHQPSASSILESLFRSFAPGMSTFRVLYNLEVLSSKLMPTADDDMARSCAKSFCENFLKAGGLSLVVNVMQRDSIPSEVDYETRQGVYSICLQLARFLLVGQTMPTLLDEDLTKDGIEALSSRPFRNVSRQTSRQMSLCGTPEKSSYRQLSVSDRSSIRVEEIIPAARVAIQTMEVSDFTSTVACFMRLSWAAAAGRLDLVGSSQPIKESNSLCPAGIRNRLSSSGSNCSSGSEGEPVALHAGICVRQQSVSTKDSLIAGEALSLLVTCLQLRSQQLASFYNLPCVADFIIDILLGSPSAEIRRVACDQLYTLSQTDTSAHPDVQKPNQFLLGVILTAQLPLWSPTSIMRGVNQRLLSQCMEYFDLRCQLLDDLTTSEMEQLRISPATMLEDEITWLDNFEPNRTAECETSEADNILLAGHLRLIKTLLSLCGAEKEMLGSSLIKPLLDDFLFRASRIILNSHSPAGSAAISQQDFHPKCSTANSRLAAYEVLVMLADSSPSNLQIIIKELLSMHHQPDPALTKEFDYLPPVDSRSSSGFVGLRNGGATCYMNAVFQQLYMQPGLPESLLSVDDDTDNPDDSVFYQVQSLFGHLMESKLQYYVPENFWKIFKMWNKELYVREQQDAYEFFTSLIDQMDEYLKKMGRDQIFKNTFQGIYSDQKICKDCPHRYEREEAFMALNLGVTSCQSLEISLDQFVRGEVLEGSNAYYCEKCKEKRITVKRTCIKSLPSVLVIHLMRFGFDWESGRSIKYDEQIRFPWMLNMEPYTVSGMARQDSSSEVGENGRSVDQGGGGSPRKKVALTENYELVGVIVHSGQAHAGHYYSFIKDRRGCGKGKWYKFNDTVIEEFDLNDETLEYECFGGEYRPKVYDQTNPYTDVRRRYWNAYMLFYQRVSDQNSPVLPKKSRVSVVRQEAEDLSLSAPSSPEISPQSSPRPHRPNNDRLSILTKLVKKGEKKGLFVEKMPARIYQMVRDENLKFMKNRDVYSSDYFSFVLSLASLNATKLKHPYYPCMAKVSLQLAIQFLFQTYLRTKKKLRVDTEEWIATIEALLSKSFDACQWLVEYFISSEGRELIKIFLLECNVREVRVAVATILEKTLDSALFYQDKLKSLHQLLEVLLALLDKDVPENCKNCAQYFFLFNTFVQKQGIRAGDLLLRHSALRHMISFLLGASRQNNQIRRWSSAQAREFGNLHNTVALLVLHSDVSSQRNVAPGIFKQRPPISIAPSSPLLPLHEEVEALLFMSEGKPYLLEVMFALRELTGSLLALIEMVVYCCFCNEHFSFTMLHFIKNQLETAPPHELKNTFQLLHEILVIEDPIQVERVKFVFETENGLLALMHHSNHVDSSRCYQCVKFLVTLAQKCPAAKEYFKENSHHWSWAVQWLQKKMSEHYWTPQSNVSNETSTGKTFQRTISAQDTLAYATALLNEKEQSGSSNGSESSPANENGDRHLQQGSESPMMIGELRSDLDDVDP
Sequence of UniProt O95573 (whole entry, looked up): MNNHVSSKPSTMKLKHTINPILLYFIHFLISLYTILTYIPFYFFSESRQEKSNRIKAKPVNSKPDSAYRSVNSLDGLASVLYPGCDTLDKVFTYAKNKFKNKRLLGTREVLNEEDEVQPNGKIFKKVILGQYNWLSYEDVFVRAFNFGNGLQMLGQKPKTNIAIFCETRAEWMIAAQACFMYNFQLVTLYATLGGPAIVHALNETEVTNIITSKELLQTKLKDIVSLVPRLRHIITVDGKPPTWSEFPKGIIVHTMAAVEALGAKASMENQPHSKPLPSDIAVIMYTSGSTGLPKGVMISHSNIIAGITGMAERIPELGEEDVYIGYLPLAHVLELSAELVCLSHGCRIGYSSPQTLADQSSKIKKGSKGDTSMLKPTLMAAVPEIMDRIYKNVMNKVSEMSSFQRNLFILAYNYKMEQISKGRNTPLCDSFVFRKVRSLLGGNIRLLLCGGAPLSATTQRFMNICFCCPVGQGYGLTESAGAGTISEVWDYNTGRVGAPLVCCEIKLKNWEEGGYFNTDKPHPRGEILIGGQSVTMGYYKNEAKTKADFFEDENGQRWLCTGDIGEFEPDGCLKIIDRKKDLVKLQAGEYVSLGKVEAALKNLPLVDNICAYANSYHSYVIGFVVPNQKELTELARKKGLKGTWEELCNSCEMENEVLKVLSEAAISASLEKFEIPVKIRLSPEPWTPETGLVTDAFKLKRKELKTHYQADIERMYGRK
Sequence of UniProt P25999 (whole entry, looked up): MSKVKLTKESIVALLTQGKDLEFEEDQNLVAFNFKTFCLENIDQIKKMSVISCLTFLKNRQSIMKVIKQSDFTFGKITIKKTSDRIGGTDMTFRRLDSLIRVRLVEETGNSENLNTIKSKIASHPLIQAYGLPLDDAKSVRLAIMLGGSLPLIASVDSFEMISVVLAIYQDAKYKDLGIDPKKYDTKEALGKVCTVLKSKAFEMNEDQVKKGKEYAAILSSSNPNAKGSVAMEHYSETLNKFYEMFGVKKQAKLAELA
Sequence of UniProt Q14790 (whole entry, looked up): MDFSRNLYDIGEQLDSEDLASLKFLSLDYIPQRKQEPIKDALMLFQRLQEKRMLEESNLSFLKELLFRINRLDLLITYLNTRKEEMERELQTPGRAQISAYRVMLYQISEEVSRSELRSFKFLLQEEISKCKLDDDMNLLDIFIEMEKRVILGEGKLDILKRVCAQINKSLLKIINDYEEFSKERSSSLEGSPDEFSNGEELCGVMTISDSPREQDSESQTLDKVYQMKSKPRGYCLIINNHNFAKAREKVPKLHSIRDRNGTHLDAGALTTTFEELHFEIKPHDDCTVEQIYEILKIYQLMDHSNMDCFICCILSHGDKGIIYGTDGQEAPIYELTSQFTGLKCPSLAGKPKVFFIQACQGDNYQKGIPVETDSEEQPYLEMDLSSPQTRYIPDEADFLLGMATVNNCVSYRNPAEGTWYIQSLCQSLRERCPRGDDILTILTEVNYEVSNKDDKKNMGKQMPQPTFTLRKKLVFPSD
Sequence of UniProt Q9NY33 (whole entry, looked up): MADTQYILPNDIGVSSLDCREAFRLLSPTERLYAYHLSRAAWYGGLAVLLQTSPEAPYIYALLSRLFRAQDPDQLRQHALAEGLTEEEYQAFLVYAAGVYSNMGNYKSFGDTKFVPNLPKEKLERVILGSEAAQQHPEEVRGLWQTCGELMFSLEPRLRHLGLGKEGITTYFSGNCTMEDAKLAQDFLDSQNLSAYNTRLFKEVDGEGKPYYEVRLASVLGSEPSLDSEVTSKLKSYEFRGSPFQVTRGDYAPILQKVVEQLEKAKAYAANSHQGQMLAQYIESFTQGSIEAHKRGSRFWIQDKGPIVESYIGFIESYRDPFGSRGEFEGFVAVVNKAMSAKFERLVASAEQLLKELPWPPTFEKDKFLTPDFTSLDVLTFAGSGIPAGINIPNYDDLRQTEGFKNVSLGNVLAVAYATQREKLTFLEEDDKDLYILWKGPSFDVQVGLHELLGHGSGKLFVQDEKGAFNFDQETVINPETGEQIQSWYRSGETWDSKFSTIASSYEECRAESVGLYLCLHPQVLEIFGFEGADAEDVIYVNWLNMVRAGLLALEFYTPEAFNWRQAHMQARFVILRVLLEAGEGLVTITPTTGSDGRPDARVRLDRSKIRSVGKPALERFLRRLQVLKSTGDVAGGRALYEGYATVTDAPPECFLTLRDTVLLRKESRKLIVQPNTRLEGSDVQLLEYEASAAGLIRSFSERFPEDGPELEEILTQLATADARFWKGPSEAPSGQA
Sequence of UniProt Q7M759 (whole entry, looked up): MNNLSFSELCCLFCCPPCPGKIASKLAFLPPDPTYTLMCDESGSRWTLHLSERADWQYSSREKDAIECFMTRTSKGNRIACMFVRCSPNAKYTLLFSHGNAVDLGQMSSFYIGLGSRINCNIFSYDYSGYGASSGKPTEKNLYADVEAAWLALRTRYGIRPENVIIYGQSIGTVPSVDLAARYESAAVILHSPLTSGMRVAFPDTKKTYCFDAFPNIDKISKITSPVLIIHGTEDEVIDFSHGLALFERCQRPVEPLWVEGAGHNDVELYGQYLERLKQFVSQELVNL

N[C@H]1CC[C@H](Nc2nccc(-c3cccnc3Oc3ccc(NC(=O)NC4CC4)c4ccccc34)n2)CC1 — log2 LFQ intensity (ACSL3 (Homo sapiens, UniProt O95573); kinobead competition pulldown; HEK293/HCT116 lysate mixture; 10 µM, 1 h, 4 °C; lower = stronger competition): 21.6 and 19.3 and 19.7 and 22.5
Cc1cc(NC(=O)[C@H](O)c2cc(F)cc(F)c2)ccc1-c1cnc(N)c(C(=O)NC(C)C)c1 — remaining binding (MERTK (Homo sapiens, UniProt Q12866); binding, competition with immobilised ligand; 0.1 µM): 75%
C[n+]1cn(C2OC(COP(=O)(O)OP(=O)([O-])C(F)(F)P(=O)(O)OP(=O)(O)OCC3OC(n4cnc5c(=O)[nH]c(N)nc54)C(O)C3O)C(O)C2O)c2nc(N)nc(O)c21 (centres unmarked) — hydrolysis (DCPS (Homo sapiens, UniProt Q96C86); substrate, HPLC; concentration not given, 120 min): 87.5 ± 0.4%
CC[C@H](C)[C@H](NC(=O)[C@@H](NC(=O)[C@H](CCCCN)NC(=O)[C@@H](NC(=O)CNC(=O)[C@@H](N)CCCNC(=N)N)[C@@H](C)O)C(C)C)C(=O)N[C@@H](CC(C)C)C(=O)N[C@@H](Cc1c[nH]cn1)C(=O)N[C@@H](CC(C)C)C(N)=O — ThT fluorescence (Microtubule-associated protein tau, PHF6* peptide (MAPT, Homo sapiens, UniProt P10636); fibril formation, ThT fluorescence; 0.1-fold of peptide, pH 7.4, together with: Ac-PHF6* 25 µM, heparin; reference: untreated): 100 ± 3%
CCCCCC=CC=C1C(=O)C=CC1CC=CCCCC(=O)O (centres unmarked) — isoTOP-ABPP competition ratio (Enoyl-CoA delta isomerase 2 (ECI2, Homo sapiens, UniProt O75521); competitive isoTOP-ABPP; proteome, soluble, MDA-MB-231; 100 µM, 60 min, together with: iodoacetamide probe; reference: DMSO over compound-treated, higher = stronger cysteine blockade): 7.4
O=C1c2sc(-c3ccc(N4CCC(F)C4)nc3F)nc2CCN1c1cccnc1 (centres unmarked) — specific binding (TAR DNA-binding protein 43, aggregated (TARDBP, Homo sapiens, UniProt Q13148); radioligand binding; control brain sarkosyl-insoluble extract; 142.86 nM): 0.147 nM
COc1cc(-c2cn(C)c(=O)c3cnccc23)cc(OC)c1CN(C)C — ΔTm (KAT2A (Homo sapiens, UniProt Q92830)): 0.9 °C
CC(=O)N1CCC[C@H]1C(=O)N[C@H](C(=O)NCC(=O)N[C@@H](CC(=O)O)C(=O)COC(=O)c1c(C)cccc1C)C(C)(C)C — kinact/KI (CASP10; enzyme activity, inhibitor): 15400 M⁻¹ s⁻¹
CC(C)[C@@H]1NC(=O)[C@H](Cc2ccccc2)NC(=O)CSC[C@@H](C(N)=O)NC(=O)[C@H](CCC(=O)O)NC(=O)[C@H](CO)NC(=O)[C@H](Cc2c[nH]c3cccc(Cl)c23)NC(=O)[C@H](C2CCCCC2)NC(=O)[C@H](C(C)C)NC(=O)[C@H](Cc2ccc(O)cc2)NC(=O)[C@H](CC(=O)O)NC(=O)[C@H](Cc2c[nH]c3ccccc23)NC(=O)[C@H](Cc2ccc(N)nc2)NC(=O)[C@H](Cc2c[nH]c3ccc(Cl)cc23)NC(=O)[C@H](CCC(=O)O)NC1=O — remaining activity (Interleukin-1 receptor-like 2 (IL1RL2, Homo sapiens, UniProt Q9HB29); reporter gene (SEAP), inhibitor, HEK-Blue IL-36R reporter; HEK-Blue IL-36R cells; 0.005 µM, 6 h, together with: IL-36γ 0.01 ng/mL): 106%
CC(=O)N[C@H](C(=O)N[C@@H](CCO)C(=O)N[C@H](C(=O)N[C@@H](CC(=O)O)C(=O)COC(=O)c1c(C)cccc1C)C(C)C)C(C)C — kobs/[I] (CASP10; inhibitor; recombinant enzyme): 10800 M⁻¹ s⁻¹
CC(=O)c1cnc(N)nc1N1CC[C@H]1c1nn2ccc(Cl)c2c(=O)n1-c1ccccc1 — target engagement (PIK3CB (Homo sapiens, UniProt P42338); KiNativ; intact human PBMC; 1 µM, 1 h): 12.3%
C=CC(=O)N1CCCC(n2c(=O)c3ncccc3n(Cc3ccc(Oc4ccccc4)cc3)c2=O)C1 (centres unmarked) — melting temperature (DPP3 (Homo sapiens, UniProt Q9NY33); thermal proteome profiling; cell proteome; treated): 52.5 °C and 52.6 °C
CC(=O)NCCCC[C@H](NC(C)=O)C(=O)N[C@@H](CCCC(=O)O)C(=O)N[C@@H](C)C(=O)N[C@@H](CC(=O)O)C(=O)COC(=O)c1c(C)cccc1C — kinact/KI (CASP8; enzyme activity, inhibitor): 990000 M⁻¹ s⁻¹
Cc1cc(=O)oc2cc(NC(=O)CCCCCCCC(=O)NO)ccc12 — TΔS° (HDAC8 (Homo sapiens, UniProt Q9BY41); ITC; Tris-HCl buffer; 288 K): 4.6 kcal/mol
CCCCCC(O)/C=C/C=O (centres unmarked) — isoTOP-ABPP competition ratio (DEP domain-containing mTOR-interacting protein (Homo sapiens, UniProt Q8TB45); competitive isoTOP-ABPP; Ramos soluble proteome; 100 µM, 60 min, together with: iodoacetamide probe; reference: DMSO over compound-treated, higher = stronger cysteine blockade): 1.3
Cc1ccccc1-c1coc2cc(O)ccc2c1=O — DHEA metabolism (HSD3B1 (Homo sapiens, UniProt P14060); [3H]-DHEA conversion; LNCaP; 0.1 µM, normalized to protein, unit not given; reference: vehicle): 0
CC(=O)N1c2ccc(-c3ccc(CNC(=O)c4cn5cc(-c6cnc(N)nc6)nc(N6CCOCC6)c5n4)cc3)cc2CC[C@@H]1C — remaining binding (Transcription intermediary factor 1-alpha, PHD-bromodomain (TRIM24, Homo sapiens, UniProt O15164); BROMOscan; 10 µM, PHD-bromodomain construct): 86%
COc1ccc2c(c1)OC1=C(/C=C/c3sc4ccccc4[n+]3C)CCCC1=C2 — Vmax (Cytochrome P450 2J2 (CYP2J2, Homo sapiens, UniProt P51589); O-demethylation, substrate; pH 7.4, 37 °C): 22.9 ± 0.33 nmol/min/nmol P450
CCC1CC2C(C)=CC3C(=O)C=CCC3C=CC(C)=CC2C(=O)O1 (centres unmarked) — fibril reduction (Microtubule-associated protein tau, K18 fragment, aggregated (MAPT, Homo sapiens, UniProt P10636); fibril dissociation, thioflavin T fluorescence; 1000 µM, tau K18 fibrils pre-formed 3 days, then 3 days more; reference: untreated fibrils same duration): 51.1%
CC(=O)N[C@H](CCc1ccccc1)C(=O)N[C@@H](CCC(=O)O)C(=O)N[C@@H](CCC(N)=O)C(=O)N[C@@H](CC(=O)O)C(=O)COC(=O)c1c(C)cccc1C — kinact/KI (CASP8; enzyme activity, inhibitor): 134000 M⁻¹ s⁻¹
O=C(N1CCCC1)n1cc(-c2ccc(-c3ccccc3)cc2)nn1 — SILAC activity ratio (Alpha/beta hydrolase domain-containing protein 17B (Abhd17b, Mus musculus, UniProt Q7M759); probe labelling, inhibitor, competitive ABPP-SILAC, item: Fam108b1; mouse T cells; concentration not given, 4 h, protein level; reference: treated over DMSO cells, lower = stronger inhibition): 1.18
CC(=O)N1C[C@H](O)C[C@H]1C(=O)N[C@H](C(=O)N[C@@H](CO)C(=O)N[C@@H](CC(=O)O)C(=O)COC(=O)c1c(C)cccc1C)C(C)C — kinact/KI (CASP8; enzyme activity, inhibitor): 431000 M⁻¹ s⁻¹
C=CC(=O)Nc1cccc(-c2cnc3[nH]cc(C(=O)NC(C)(C)C)c3n2)c1 — inhibition (TYK2 (Homo sapiens, UniProt P29597); enzyme activity, inhibitor; 0.1 µM): 40%
CC(C=CC=C(C)C=CC1=C(C)CCCC1(C)C)=CC=O — Pearson correlation coefficient (Rhodopsin (RHO, Homo sapiens, UniProt P08100, E181K); ER retention, immunostaining co-localization, item: opsin with calnexin; COS-7 transfected E181K; 30.00 µM): 0.46
CN(C)CCCSC(=S)N1CCN(C(=O)/C=C/c2coc3ccccc3c2=O)CC1 — relative protein level (Nucleoprotein (N, Tomato spotted wilt virus, UniProt P25999); immunoblot, item: N protein; concentration not given, 30 min, 25 °C, together with: RNA; reference: level at 0 min): 0.959 and 1.33
N#CN1CC[C@H](C(=O)Nc2nc3c(s2)CN(C(=O)Cn2cc(CNC(=O)CCCC[C@@H]4SC[C@@H]5NC(=O)N[C@@H]54)nn2)CC3)C1 — iBAQ abundance (USP24 (Homo sapiens, UniProt Q9UPU5); probe binding, affinity probe, neutravidin pull-down LC-MS/MS; HEK293T, cell lysate; 5 µM, 1 h, single replicate, unit not given; higher = more pulled down): 1.3e+06 and 865000 and 1.58e+06
Cc1cn(CC(=O)N(CC(=O)N[C@H]2CCC[C@@H]2N(CC(=O)N[C@H]2COC[C@@H]2N(CC(=O)N[C@H]2COC[C@@H]2N(CC(=O)N[C@H]2COC[C@@H]2N(CC(=O)NCCOCCOCC(N)=O)C(=O)Cn2cnc3c(N)ncnc32)C(=O)Cn2cc(C)c(=O)[nH]c2=O)C(=O)Cn2cnc3c(N)ncnc32)C(=O)Cn2cnc3c(=O)[nH]c(N)nc32)[C@H]2CCC[C@@H]2NC(=O)CN(C(=O)Cn2cnc3c(=O)[nH]c(N)nc32)[C@H]2CCC[C@@H]2NC(=O)CN(C(=O)Cn2cc(C)c(=O)[nH]c2=O)[C@H]2COC[C@@H]2NC(=O)CN(C(=O)Cn2cnc3c(N)ncnc32)[C@H]2COC[C@@H]2NC(=O)CN(C(=O)Cn2cnc3c(=O)[nH]c(N)nc32)[C@H]2COC[C@@H]2N)c(=O)[nH]c1=O — Tm (complementary DNA; duplex formation, UV melting curve fit; PBS; 1 µM, fit parameter α 0.5): 82.6 ± 0.2 °C
C[Si](C)(C)C[C@H](CN)CC(=O)O — inhibition (Voltage-dependent calcium channel subunit alpha-2/delta-1 (Rattus norvegicus, UniProt P54290); binding, radioligand binding; rat cerebral cortex membranes; 250 µM, together with: [3H]gabapentin): 91%
Cc1ncsc1-c1ccc(CNC(=O)[C@@H]2C[C@@H](O)CN2C(=O)[C@@H](NC(=O)COCC(C)(COCCOCCOCCNC(=O)C[C@@H]2N=C(c3ccc(Cl)cc3)c3c(sc(C)c3C)-n3c(C)nnc32)COCCOCCOCCNC(=O)C[C@@H]2N=C(c3ccc(Cl)cc3)c3c(sc(C)c3C)-n3c(C)nnc32)C(C)(C)C)cc1 — % Rmax (BRD4/VHL, BD1 (Homo sapiens, UniProt O60885+P40337); ternary complex binding, SPR multi-cycle kinetics; together with: BRD4 bromodomains): 48 ± 6%

For quick reference, copied from above:
C[Si](C)(C)C[C@H](CN)CC(=O)O — inhibition (Voltage-dependent calcium channel subunit alpha-2/delta-1 (Rattus norvegicus, UniProt P54290); binding, radioligand binding; rat cerebral cortex membranes; 250 µM, together with: [3H]gabapentin): 91%
CC(=O)N1c2ccc(-c3ccc(CNC(=O)c4cn5cc(-c6cnc(N)nc6)nc(N6CCOCC6)c5n4)cc3)cc2CC[C@@H]1C — remaining binding (Transcription intermediary factor 1-alpha, PHD-bromodomain (TRIM24, Homo sapiens, UniProt O15164); BROMOscan; 10 µM, PHD-bromodomain construct): 86%
CCC1CC2C(C)=CC3C(=O)C=CCC3C=CC(C)=CC2C(=O)O1 (centres unmarked) — fibril reduction (Microtubule-associated protein tau, K18 fragment, aggregated (MAPT, Homo sapiens, UniProt P10636); fibril dissociation, thioflavin T fluorescence; 1000 µM, tau K18 fibrils pre-formed 3 days, then 3 days more; reference: untreated fibrils same duration): 51.1%
